Measured values of several laboratories.
Each line is one published result; not all experiments were run side by side. ± marks the error that the study gave.
UniProt P30411, sequence (whole entry, looked up): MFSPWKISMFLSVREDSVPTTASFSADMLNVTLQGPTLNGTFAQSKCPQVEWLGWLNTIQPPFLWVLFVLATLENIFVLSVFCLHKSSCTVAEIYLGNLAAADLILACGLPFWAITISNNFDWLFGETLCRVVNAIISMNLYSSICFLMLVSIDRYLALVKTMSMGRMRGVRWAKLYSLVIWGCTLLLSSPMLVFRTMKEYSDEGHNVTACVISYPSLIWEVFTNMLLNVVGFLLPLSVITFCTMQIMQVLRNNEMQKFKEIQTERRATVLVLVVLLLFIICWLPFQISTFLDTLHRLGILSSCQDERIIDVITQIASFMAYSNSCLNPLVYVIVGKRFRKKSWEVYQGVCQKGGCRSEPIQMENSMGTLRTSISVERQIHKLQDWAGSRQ
UniProt P06276, sequence (whole entry, looked up): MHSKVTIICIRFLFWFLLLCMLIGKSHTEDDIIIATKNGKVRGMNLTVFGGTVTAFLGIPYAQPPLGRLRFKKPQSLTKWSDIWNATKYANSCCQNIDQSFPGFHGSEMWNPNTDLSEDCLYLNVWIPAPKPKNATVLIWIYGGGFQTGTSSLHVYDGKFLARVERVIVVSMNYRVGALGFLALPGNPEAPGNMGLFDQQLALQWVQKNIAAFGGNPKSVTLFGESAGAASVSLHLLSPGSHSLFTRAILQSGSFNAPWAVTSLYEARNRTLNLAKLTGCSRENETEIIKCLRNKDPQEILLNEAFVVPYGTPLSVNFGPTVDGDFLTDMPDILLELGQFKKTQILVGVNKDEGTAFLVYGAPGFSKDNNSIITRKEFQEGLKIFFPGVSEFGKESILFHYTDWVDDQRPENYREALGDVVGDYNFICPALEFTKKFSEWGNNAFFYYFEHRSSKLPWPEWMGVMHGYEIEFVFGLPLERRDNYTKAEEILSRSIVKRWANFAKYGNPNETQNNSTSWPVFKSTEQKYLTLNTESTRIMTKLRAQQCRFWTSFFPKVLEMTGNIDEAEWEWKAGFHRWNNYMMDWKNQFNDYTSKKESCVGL

`Clc1ccc(-c2cccc(Cl)c2Cl)cc1Cl`: “literature range factor” 2 (polyethylene-water partitioning; PCB compilation; baseline: maximum over minimum K).
`C[C@]1(O)C[C@@](N)(c2ccc(-c3nc4n(c3-c3ccccc3)COc3ccncc3-4)cc2)C1`: “patients with TEAE” 100% (human, advanced or metastatic solid tumours; 28 mg intermittent, phase I dose escalation).
For `CC(C)CC(=O)OC[C@H]1O[C@@](C#N)(c2ccc3c(N)ncnn23)[C@H](O)[C@@H]1O`, the fraction bound was 0.836 (mouse plasma; 0.9 to 90 µM).
The AUC(0-t) of `Cc1[nH]c(C)c(S(=O)(=O)Nc2ccc(S(F)(F)(F)(F)F)cc2)c1C(=O)N1CCC(F)(F)C1` is reported as 190000 ng·h/g (mouse, plasma; intraperitoneal, 40 mg/kg).
`O=C(O)CCC(CP(=O)(O)O)C(=O)O` (stereo not shown) gave a measured concentration of 7.59 ± 0.14 µg/mL (rat plasma; 8 µg/mL, freeze-thaw cycle 2 at -80 °C).
For `NC(=O)[C@H]1CCN(c2ncnc(N)c2F)C[C@@H]1N1CCC[C@@H](Nc2cc(Cl)cc(C(F)(F)F)c2)C1=O`, “grade ≥3 thrombocytopenia” read 20% (B-cell malignancy patients; oral, 41 mg twice daily, dose).
With `CO[C@H]1C[C@@H]2CC[C@@H](C)[C@@](O)(O2)C(=O)C(=O)N2CCCC[C@H]2C(=O)O[C@H]([C@H](C)C[C@@H]2CC[C@@H](OC(=O)NCCOCCOCCOCCOCCOCCOCCOCCOCCC(=O)N3CCc4cc(Cn5nc(-c6ccc7oc(N)nc7c6)c6c(N)ncnc65)ccc4C3)[C@H](OC)C2)C[C@@H](O)[C@H](C)/C=C(\C)[C@@H](O)[C@@H](OC)C(=O)[C@H](C)C[C@H](C)/C=C/C=C/C=C/1C` the dyspnoea incidence was 0% (patients with advanced solid tumours; intravenous, 8 mg weekly, grade 3 or higher).
`O=S(=O)(Nc1ccccc1)c1ccc(NC(=S)Nc2ccccc2)cc1`: “relative organ weight” 0.83% (mouse, male, large intestine; oral, 5 mg/kg daily, 14 days; baseline: body weight).
`O=C1Nc2cc3[nH]nc(-c4ccncc4)c3cc2CN1Cc1ccccc1`: “patients with decreased appetite” 11% (CTCAE v4.03; advanced solid tumour patients; intravenous, 9.6 mg/kg, schedules 1/2).
The log K(PDMS-water) of `Clc1ccc(-c2cc(Cl)c(Cl)c(Cl)c2Cl)cc1Cl` is reported as 6.37 ± 0.06 (fresh water; 20 °C, S30-1 sampler, 30 µm).
For `CCNCCCNC/C=C\CNCCCNCC`, “ECG changed to abnormal” read 2.8% (human, advanced solid tumours; intravenous, dose not given; baseline: patients).
For `CN[C@H]1CC[C@@H](c2ccc(Cl)c(Cl)c2)c2ccccc21`, the Tmax was 30 min (CD-1 mouse, male, lung; intraperitoneal, 10 mg/kg).
`O=C(Nc1cnccc1Cl)N1CCN(Cc2ccc3c(c2)OC(F)(F)O3)CC1` has an inhibition of 1% (BDKRB2 (Homo sapiens, UniProt P30411); binding; 50 µM, together with: [3H]bradykinin).
For `CC(C)[C@@H]1NC(=O)[C@@H]2CSSC[C@@H]3NC(=O)[C@H]([C@@H](C)O)NC(=O)[C@@H]4CSSC[C@H](NC(=O)[C@H](C(C)C)NC(=O)[C@@H]5CCCN5C(=O)[C@H](CCCCN)NC(=O)CNC(=O)[C@H](CC(N)=O)NC(=O)[C@H](CCCNC(=N)N)NC(=O)[C@H]([C@@H](C)O)NC(=O)[C@H](CSSC[C@H](NC(=O)[C@H]([C@@H](C)O)NC(=O)CNC(=O)CNC1=O)C(=O)N[C@@H](CC(N)=O)C(=O)N[C@@H]([C@@H](C)O)C(=O)N1CCC[C@H]1C(=O)NCC(=O)N4)NC(=O)[C@H](C(C)C)NC(=O)[C@@H]1CCCN1C(=O)[C@H](Cc1c[nH]c4ccccc14)NC(=O)[C@H](CO)NC3=O)C(=O)NCC(=O)N[C@@H](CCC(=O)O)C(=O)N[C@@H]([C@@H](C)O)C(=O)N2`, the remaining peptide was 86.1 ± 1% (HPLC; ammonium bicarbonate; 180 µM, 14 days, pH 9.0, 25 °C, deamidation stability).
`NCCCC[C@@H]1NC(=O)[C@@H](Cc2c[nH]c3ccccc23)NC(=O)[C@H](c2ccccc2)NC(=O)[C@@H]2C[C@@H](OC(=O)NCCN)CN2C(=O)[C@H](Cc2ccccc2)NC(=O)[C@H](Cc2ccc(OCc3ccccc3)cc2)NC1=O` — result for “placebo-corrected QTcF change”: 9.6 ms (healthy volunteers, male; 600 µg twice daily, 1.0 h, post hoc).
`Clc1ccc(-c2ccc(Cl)c(Cl)c2)c(Cl)c1` has a log K(PDMS-water) of 5.64 ± 0.04 (fresh water; 20 °C, S100 sampler, 100 µm).
For `Cc1cn([C@H]2O[C@@H](CO[P@@](=O)(N[C@@H](C)C(=O)OC(C)C)Oc3ccccc3)[C@H](O)[C@H]2F)c(=O)[nH]c1=O`, “patients with TEAE” read 40% (refers to: Headache; human; 25 mg).
For `CC(C)CN1CCc2ccc(Br)cc21`, the IC50 was 10 µM (Plasmodium falciparum; 7G8).
`N[C@@H]1c2ccccc2OC12CCN(c1cnc3c(N4CCCc5ncccc54)n[nH]c3n1)CC2` — result for “TEAE leading to death”: 2.8% (patients advanced metastatic solid tumours; oral, dose not given, dose escalation total).
With `CN1CCN(c2ccc(Nc3nccc(-c4ccnc(NCc5ccccc5)c4)n3)cc2C(F)(F)F)CC1` the toxicity was 63 ± 23% (Danio rerio embryos; 5 µM, 5 d).
With `COc1ccnc(C(=O)N[C@H]2COC(=O)[C@H](Cc3ccccc3)[C@@H](OC(=O)C(C)C)[C@H](C)OC2=O)c1OCOC(=O)C(C)C` the DT50 was 3.5 days (aerobic laboratory soil, dark; geometric mean of 4 soils, not normalised, modelling endpoint).
For `CC(C)[C@@H]1NC(=O)CNC(=O)[C@H](CC(N)=O)NC(=O)[C@H](CCCNC(=N)N)NC(=O)[C@H](Cc2ccc(O)cc2)NC(=O)[C@H](C(C)C)NC(=O)[C@@H](NC(=O)[C@@H](NC(=O)[C@H](CC(N)=O)NC(=O)[C@H](Cc2c[nH]c3ccccc23)NC(=O)[C@H](C)NC(=O)[C@H](Cc2ccccc2)NC(=O)CN)C(C)C)CSSC[C@@H](C(=O)N[C@@H](Cc2c[nH]cn2)C(=O)N[C@@H](CCCNC(=N)N)C(=O)N[C@@H](CCCNC(=N)N)C(=O)N[C@@H](C)C(=O)N[C@@H](CC(N)=O)C(N)=O)NC(=O)[C@H](C(C)C)NC(=O)[C@H](CCCNC(=N)N)NC1=O`, “secondary structure content” read 34.3% (circular dichroism, refers to: Random-coil; PBS; 80 µM, pH 7.4).
`COc1cc2c(Oc3ccc4[nH]c(C)cc4c3F)ccnc2cc1OCC1(N)CC1` — result for “incidence of adverse event”: 8.8% (refers to: grade 1 or 2 bone pain; paediatric high-risk refractory sarcoma; whole group).
Under “body weight gain”, `CCOc1cc(Oc2ccc(C(F)(F)F)cc2Cl)ccc1[N+](=O)[O-]` is recorded as 31.2% (rat, male; 125 mg/kg, 4 days).
For `C=CC(=O)Nc1cc(Nc2nccc(Nc3cc(Cl)c(F)cc3C(C)(C)O)n2)c(OC)cc1N1CC[C@@H](N(C)C)C1`, “patients with lipase increased” read 20% (human patients; oral, 400 mg, treatment-emergent adverse events).
For `C[C@@H](NC(=O)N1C(=O)[C@H](Cc2ccnc(N)c2)[C@H]1C(=O)O)C1CCCCC1`, “drug-related decreased neutrophil” read 0% (healthy Chinese adult volunteers; continuous intravenous infusion, dose not given, 5.0 days, CTCAE 5.0, all doses).
`C[C@]1(CO)Cc2ncn(-c3ccc(C#N)c(Cl)c3)c2C(=O)O1` — result for “drug-related orthostatic hypotension incidence”: 0% (Japanese subjects; 3 mg single dose).
The IC50 of `OC(CCN1CCCCC1)(c1ccccc1)C1CCCCC1` (stereo not shown) is reported as 5.01 µM (Plasmodium falciparum; 7G8).
`Cc1ccccc1NC(=O)Nc1ccc(CC(=O)N[C@@H](CCCCNC(=O)/C=C/c2cccnc2)C(=O)N[C@@H](CCCC(=O)O)C(=O)NC2(C(=O)NCCOCCOCCOCCOCC(=O)N[C@@H](CCCCNC(=S)Nc3ccc(CCCN(CCN4CCN(CC(=O)O)CCN(CC(=O)O)CC4)CP(=O)(O)O)cc3)C(N)=O)CCCCC2)cc1` [gallium-68 labelled] has a log D of -1.8 ± 0.03 (shake flask; octanol/PBS; pH 7.4).
`COc1cccc2c1CCCC2CCCN1CCN(C2CCCCC2)CC1` (stereo not shown) gave a Tmax of 15 min (CD-1 mouse, male, lung; intraperitoneal, 0.3 mg/kg).
`Cc1ccccc1C(=O)NN=Cc1ccc(O)c(Br)c1` gave an AUC(0-t) of 127 ng·h/mL (C3H/HeN mouse IN model, plasma; intravenous, 0.8 mg/kg).
`CN1CCc2cc(Cl)c(O)cc2[C@@H](c2cccc3c2OCC3)C1` has an IC50 of 3.87 ± 1.97 µM (Cholinesterase (BCHE, Homo sapiens, UniProt P06276); enzyme activity, inhibitor; Triton).
`C/C=C1/CN2CC[C@@]34c5cc(O)ccc5N(C)[C@]35OC[C@@]4(C(=O)OC)[C@H]1C[C@H]25` has a CLint of 51.4 ± 3.4 µL/min/mg (rat liver microsomes, male; 1 µM, pH 7.4).
`NNC(=O)c1ccncc1` gave an IC50 of > 1000 µM (Gag-Pol polyprotein, integrase with LEDGF/p75 (gag-pol, Human immunodeficiency virus 1, UniProt P12497); LEDGF/p75-integrase interaction, inhibitor, AlphaScreen).

For quick reference, copied from above:
`O=C(O)CCC(CP(=O)(O)O)C(=O)O` (stereo not shown) gave a measured concentration of 7.59 ± 0.14 µg/mL (rat plasma; 8 µg/mL, freeze-thaw cycle 2 at -80 °C).
Under “body weight gain”, `CCOc1cc(Oc2ccc(C(F)(F)F)cc2Cl)ccc1[N+](=O)[O-]` is recorded as 31.2% (rat, male; 125 mg/kg, 4 days).
`O=C1Nc2cc3[nH]nc(-c4ccncc4)c3cc2CN1Cc1ccccc1`: “patients with decreased appetite” 11% (CTCAE v4.03; advanced solid tumour patients; intravenous, 9.6 mg/kg, schedules 1/2).
